Measured values pooled from the literature.
Compare with care: the assays were run in different laboratories. ± marks the error that the study gave.
UniProt P49761, sequence (whole entry, looked up): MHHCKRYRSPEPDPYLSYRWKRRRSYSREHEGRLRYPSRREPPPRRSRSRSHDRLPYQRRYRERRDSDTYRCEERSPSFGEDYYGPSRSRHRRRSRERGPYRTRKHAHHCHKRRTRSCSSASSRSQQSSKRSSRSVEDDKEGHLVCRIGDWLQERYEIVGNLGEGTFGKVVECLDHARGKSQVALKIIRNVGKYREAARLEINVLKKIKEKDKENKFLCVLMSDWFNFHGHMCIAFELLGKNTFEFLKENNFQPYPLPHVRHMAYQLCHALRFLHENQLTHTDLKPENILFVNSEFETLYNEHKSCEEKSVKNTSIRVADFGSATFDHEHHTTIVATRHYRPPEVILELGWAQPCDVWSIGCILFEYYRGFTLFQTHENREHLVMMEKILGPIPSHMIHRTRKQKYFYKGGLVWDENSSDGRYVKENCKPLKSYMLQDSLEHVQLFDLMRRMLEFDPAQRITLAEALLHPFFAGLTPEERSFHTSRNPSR
UniProt P52333, sequence (whole entry, looked up): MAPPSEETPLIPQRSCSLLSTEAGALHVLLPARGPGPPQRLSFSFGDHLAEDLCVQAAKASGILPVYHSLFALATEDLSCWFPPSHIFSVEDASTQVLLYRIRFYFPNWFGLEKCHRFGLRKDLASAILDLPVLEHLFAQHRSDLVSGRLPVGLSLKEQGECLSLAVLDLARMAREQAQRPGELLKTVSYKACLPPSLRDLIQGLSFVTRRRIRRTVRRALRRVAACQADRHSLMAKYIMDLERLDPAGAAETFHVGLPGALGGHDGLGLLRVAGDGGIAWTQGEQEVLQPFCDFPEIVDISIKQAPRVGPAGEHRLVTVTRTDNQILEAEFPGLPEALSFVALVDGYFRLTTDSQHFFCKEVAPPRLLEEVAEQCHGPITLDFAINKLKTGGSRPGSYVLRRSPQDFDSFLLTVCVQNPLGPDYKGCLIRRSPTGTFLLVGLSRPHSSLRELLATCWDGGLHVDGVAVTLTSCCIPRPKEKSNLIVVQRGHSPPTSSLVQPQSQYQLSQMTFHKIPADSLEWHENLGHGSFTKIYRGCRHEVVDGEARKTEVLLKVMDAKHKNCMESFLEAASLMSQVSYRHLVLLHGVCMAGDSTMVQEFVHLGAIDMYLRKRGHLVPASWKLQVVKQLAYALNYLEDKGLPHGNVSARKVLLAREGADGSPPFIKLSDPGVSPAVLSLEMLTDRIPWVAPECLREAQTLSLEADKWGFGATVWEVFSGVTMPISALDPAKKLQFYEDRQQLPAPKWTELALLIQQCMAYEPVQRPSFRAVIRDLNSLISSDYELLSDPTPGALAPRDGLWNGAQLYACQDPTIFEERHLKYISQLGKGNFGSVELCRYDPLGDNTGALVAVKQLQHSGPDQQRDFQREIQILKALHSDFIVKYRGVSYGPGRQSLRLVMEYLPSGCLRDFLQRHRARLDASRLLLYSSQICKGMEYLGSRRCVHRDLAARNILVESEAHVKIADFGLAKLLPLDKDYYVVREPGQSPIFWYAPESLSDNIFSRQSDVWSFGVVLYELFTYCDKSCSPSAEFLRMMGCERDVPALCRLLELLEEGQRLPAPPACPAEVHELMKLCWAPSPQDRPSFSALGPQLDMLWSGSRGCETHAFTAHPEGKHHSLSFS
UniProt P42680, sequence (whole entry, looked up): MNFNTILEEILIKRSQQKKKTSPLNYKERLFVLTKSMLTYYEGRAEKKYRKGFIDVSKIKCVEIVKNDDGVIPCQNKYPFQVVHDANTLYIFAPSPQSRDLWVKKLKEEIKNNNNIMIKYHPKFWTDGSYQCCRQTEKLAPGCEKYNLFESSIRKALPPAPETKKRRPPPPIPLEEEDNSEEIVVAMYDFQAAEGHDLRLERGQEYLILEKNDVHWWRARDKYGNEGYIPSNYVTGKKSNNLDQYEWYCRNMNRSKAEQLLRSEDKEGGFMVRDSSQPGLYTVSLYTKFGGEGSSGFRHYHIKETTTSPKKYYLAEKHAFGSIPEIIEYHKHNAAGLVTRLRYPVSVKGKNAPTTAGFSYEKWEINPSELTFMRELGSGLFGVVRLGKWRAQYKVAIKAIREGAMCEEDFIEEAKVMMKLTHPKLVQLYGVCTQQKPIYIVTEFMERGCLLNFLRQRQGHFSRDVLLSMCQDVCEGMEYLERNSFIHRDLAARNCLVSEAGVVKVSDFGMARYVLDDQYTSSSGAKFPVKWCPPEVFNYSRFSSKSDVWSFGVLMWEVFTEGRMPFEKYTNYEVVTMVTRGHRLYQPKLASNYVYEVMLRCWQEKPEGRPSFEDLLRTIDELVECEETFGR
UniProt Q9Y6L6, sequence (whole entry, looked up): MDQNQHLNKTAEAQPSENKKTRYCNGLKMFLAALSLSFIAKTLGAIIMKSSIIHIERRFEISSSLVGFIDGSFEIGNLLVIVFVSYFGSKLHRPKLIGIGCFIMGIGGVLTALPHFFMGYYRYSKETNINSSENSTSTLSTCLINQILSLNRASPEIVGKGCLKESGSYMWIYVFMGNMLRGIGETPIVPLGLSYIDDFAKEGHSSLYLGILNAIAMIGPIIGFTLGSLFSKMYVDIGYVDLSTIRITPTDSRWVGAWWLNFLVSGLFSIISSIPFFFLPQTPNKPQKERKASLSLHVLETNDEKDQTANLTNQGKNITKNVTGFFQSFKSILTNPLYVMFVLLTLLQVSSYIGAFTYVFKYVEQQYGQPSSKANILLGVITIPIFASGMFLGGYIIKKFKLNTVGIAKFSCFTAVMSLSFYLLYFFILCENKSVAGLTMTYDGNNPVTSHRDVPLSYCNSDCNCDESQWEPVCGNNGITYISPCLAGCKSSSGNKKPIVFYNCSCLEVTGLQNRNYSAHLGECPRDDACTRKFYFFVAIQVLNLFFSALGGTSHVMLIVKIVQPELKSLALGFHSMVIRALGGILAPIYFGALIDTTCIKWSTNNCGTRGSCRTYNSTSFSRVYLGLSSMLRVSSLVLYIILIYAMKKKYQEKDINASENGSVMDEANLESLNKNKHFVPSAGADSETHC
UniProt Q00534, sequence (whole entry, looked up): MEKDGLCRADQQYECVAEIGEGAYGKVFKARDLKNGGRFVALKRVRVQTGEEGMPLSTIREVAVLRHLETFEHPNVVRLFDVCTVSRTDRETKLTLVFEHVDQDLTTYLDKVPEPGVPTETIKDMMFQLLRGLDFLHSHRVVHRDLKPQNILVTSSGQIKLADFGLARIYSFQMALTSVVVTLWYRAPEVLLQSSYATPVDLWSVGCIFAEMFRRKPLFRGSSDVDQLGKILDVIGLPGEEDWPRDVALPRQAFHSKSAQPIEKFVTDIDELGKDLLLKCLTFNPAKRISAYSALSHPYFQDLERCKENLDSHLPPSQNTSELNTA

Structure (SMILES)	target or system	test	system	setting	scale	endpoint	result
CC(C)[C@H]1NC(=O)C[C@H]2/C=C/CCSSC[C@@H](NC1=O)C(=O)N[C@H](Cc1cccc3ccccc13)C(=O)NCC(=O)O2	Cyclin-dependent kinase 6, with cyclin D3 (CDK6, Homo sapiens, UniProt Q00534)	enzyme activity, inhibitor		10 µM		inhibition	9%
COc1cnc2cccc(N3CCc4c(cc(Cn5ccnc5)cc4-c4cn(C)nc4C(F)(F)F)C3=O)c2c1			CD-1 mouse	intraperitoneal, 50 mg/kg once daily, day 3, dose-escalation tolerability	reference: day 1	body weight change	4%
O=C1NC(=O)c2c1c1cc(F)c[n+]3c1c1c2c2cc(O)ccc2[n]1[Ru-4]312([N]=C=S)[S+]3CC[S+]1CC[S+]2CC3 (stereo not drawn)	TEC (Homo sapiens, UniProt P42680)	enzyme activity		100 nM, human enzyme, with: 10 µM ATP	reference: untreated	remaining activity	66%
CCCCC(CC)COC(=O)CC(C(=O)OCC(CC)CCCC)S(=O)(=O)O.COC(=O)Nc1nc2cc(C(=O)c3ccc(F)cc3)ccc2[nH]1 (stereo not drawn)		visual inspection	Miglyol 812			solubility	< 5000 µg/mL
COc1ccccc1-c1n[nH]c2nc(NC3CCN(C(=O)Cc4ccc(F)cc4F)CC3)ncc12		bead binding, competition bead pull-down, refers to: LINJ.35.4500	Leishmania donovani extract	10 µM	reference: vehicle	relative abundance	1.31
O=C1NC2(CC2)COc2ncc(F)cc2[C@H]2COCCN2c2ccn3ncc1c3n2			Sprague-Dawley rat, female, kidneys	oral, 10 mg/kg/day, 4 weeks dosing, end of recovery		organ-to-brain weight ratio	103 ± 9.31%
Cn1nc(NS(C)(=O)=O)c2c(Cl)ccc(-n3c([C@H](Cc4cc(F)cc(F)c4)NC(=O)Cn4nc(C(F)F)c5c4C(F)(F)[C@@H]4C[C@H]54)nc4nc(OCCC(F)(F)F)ccc4c3=O)c21			human, plasma	oral, 625 mg single dose, powder in bottle, geometric mean		AUC(0-inf)	24400 ng·h/mL
COc1nc(CC=C(C)CC=CC(C)=CC(C)C(OC2OC(CO)C(O)C(O)C2O)C(C)=CCO)c(C)c(O)c1OC (stereo not drawn)			C57BL/6 mouse, plasma	oral, 10 mg/kg		AUC(0-t)	48.3 ng·h/mL
Cc1cc(-c2ccc3ccccc3c2)nnc1NCCN1CCN(C)CC1	SLCO1B1 (Homo sapiens, UniProt Q9Y6L6)	transport		concentration not given		inhibition	negative
CS(C)(=O)=Nc1ccc(-c2ccc(-c3nc4cc(O[C@@H]5CO[C@H]6[C@@H]5OC[C@H]6O)[nH]c4cc3F)cc2)cc1	CLK3 (Homo sapiens, UniProt P49761)	enzyme activity, inhibitor		10 µM		inhibition	0%
COc1cc2c(cc1O)C(CCc1ccc(Cl)cc1)N([11CH3])CC2 (stereo not drawn)		PET	Sprague-Dawley rat, male, brain	intravenous, 20.5 MBq, no carrier added		time to peak brain radioactivity	~5 min
O=C(O)C(F)(OC(F)(F)C(F)(F)C(F)(F)F)C(F)(F)F (stereo not drawn)		19F NMR titration	MeOH/water	27 °C		pKa	-0.2 ± 0.09
CC(C)C[C@H](NC(=O)[C@H](Cc1ccc(O)cc1)NC(=O)[C@H](Cc1c[nH]cn1)NC(=O)[C@H](CC(N)=O)NC(=O)[C@H](CC(C)C)NC(=O)[C@H](C)NC(=O)[C@H](CC(C)C)NC(=O)CNC(=O)CNC(=O)[C@@H](NC(=O)[C@@H](NC(=O)[C@H](CCCCN)NC(=O)CNC(=O)[C@@H](NC(=O)[C@H](CCCCN)NC(=O)[C@H](CCCCN)NC(=O)[C@H](C)NC(=O)[C@H](CCCCN)NC(=O)[C@H](CCCNC(=N)N)NC(=O)[C@H](Cc1ccccc1)NC(=O)[C@H](Cc1c[nH]c2ccccc12)NC(=O)[C@H](CC(=O)O)NC(=O)[C@H](CCCCN)NC(=O)[C@H](Cc1c[nH]c2ccccc12)NC(=O)CN)C(C)C)[C@@H](C)O)C(C)C)C(N)=O			zebrafish embryos 28 hpf, E3 medium	24 h		chronic toxic concentration	5 µM
CN(C)[C@H]1C[C@@]23CC[C@@]4(O2)C(=CC[C@]2(C)[C@@H](c5ccc6ccncc6c5)CC[C@H]24)C=C3[C@@H](O)[C@@H]1O	Tyrosine-protein kinase JAK3, JH2 pseudokinase domain (JAK3, Homo sapiens, UniProt P52333)	ATP probe labelling, inhibitor, KiNativ profiling		0.1 µM		inhibition	4.1%
CC(C)[C@@H]1NC(=O)CNC(=O)[C@H](CC(N)=O)NC(=O)[C@H](CCCNC(=N)N)NC(=O)[C@H](Cc2ccc(O)cc2)NC(=O)[C@H](C(C)C)NC(=O)[C@@H](NC(=O)[C@@H](NC(=O)[C@H](CC(N)=O)NC(=O)[C@H](Cc2c[nH]c3ccccc23)NC(=O)[C@H](C)NC(=O)[C@H](Cc2ccccc2)NC(=O)CNC(=O)[C@H](CCCCN)NC(=O)[C@H](Cc2ccccc2)NC(=O)[C@H](Cc2ccccc2)NC(=O)[C@H](CCCCN)NC(=O)OCC2c3ccccc3-c3ccccc32)C(C)C)CSSC[C@@H](C(=O)N[C@@H](Cc2c[nH]cn2)C(=O)N[C@@H](CCCNC(=N)N)C(=O)N[C@@H](CCCNC(=N)N)C(=O)N[C@@H](C)C(=O)N[C@@H](CC(N)=O)C(N)=O)NC(=O)[C@H](C(C)C)NC(=O)[C@H](CCCNC(=N)N)NC1=O			ICR mice, serum	intraperitoneal, 10 mg/kg, day 5		ALT	45.1 ± 1.53 IU/L
CC[C@H](C)[C@H](NC(=O)[C@H](CCCCN)NC(=O)CNC(=O)[C@H](CC(C)C)NC(=O)[C@H](Cc1ccccc1)NC(=O)[C@H](CCCCN)NC(=O)[C@H](CO)NC(=O)[C@H](Cc1ccccc1)NC(=O)[C@H](Cc1c[nH]c2ccccc12)NC(=O)[C@H](CCC(N)=O)NC(=O)[C@@H](NC(=O)[C@H](Cc1ccccc1)NC(=O)CCCCCNC(=O)CN1CCN(CC(=O)O)CCN(CC(=O)O)CCN(CC(=O)O)CC1)C(C)C)C(=O)N[C@@H](CCC(=O)O)C(=O)N1CCC[C@H]1C(=O)N[C@H](CC(=O)O)C(=O)N[C@H](C(=O)N[C@@H](CO)C(=O)N[C@@H](CCC(N)=O)C(=O)N[C@H](C(=O)N[C@@H](CCC(N)=O)C(=O)N[C@@H](CC(=O)O)C(=O)N1CCC[C@H]1C(=O)N[C@@H](CC(N)=O)C(=O)N[C@@H](CC(=O)O)C(=O)N[C@@H](CCC(N)=O)C(=O)N[C@@H](Cc1ccc(O)cc1)C(=O)N[C@@H](CCC(=O)O)C(=O)N1CCC[C@H]1C(=O)N[C@@H](Cc1ccccc1)C(=O)O)C(C)C)C(C)C [copper-64 labelled]			C57BL/6 mice, male, MC-38 tumour-bearing, muscle	2 h, checkpoint inhibitor-treated		tissue uptake	0.21 ± 0.03 %ID/g
CN1Cc2cc(Cl)ccc2-n2c(nnc2C2CCN(c3cccc([18F])n3)CC2)C1			C57BL/6 mouse male, heart	intravenous, 3.7 MBq, 15 min		tissue uptake	4.77 ± 0.79 %ID/g
CSCC[C@H](N)C(=O)N[C@@H](C)C(=O)N[C@@H](Cc1c[nH]c2ccccc12)C(=O)N[C@@H](Cc1c[nH]cn1)C(=O)N[C@@H](CC(=O)O)C(=O)N[C@@H](CC(=O)O)C(=O)N[C@@H](CCC(=O)O)C(=O)N[C@@H](CCC(=O)O)C(=O)N[C@@H](Cc1ccccc1)C(=O)N[C@@H](C)C(=O)N[C@@H](CCCNC(=N)N)C(=O)N[C@@H](CCCNC(=N)N)C(=O)N[C@@H](CCCNC(=N)N)C(=O)N[C@@H](CCCNC(=N)N)C(=O)NCCCCCC(=O)NCCCCC(NC(=O)CCCCCNC(=O)[C@H](CCCNC(=N)N)NC(=O)[C@H](CCCNC(=N)N)NC(=O)[C@H](CCCNC(=N)N)NC(=O)[C@H](CCCNC(=N)N)NC(=O)[C@H](C)NC(=O)[C@H](Cc1ccccc1)NC(=O)[C@H](CCC(=O)O)NC(=O)[C@H](CCC(=O)O)NC(=O)[C@H](CC(=O)O)NC(=O)[C@H](CC(=O)O)NC(=O)[C@H](Cc1c[nH]cn1)NC(=O)[C@H](Cc1c[nH]c2ccccc12)NC(=O)[C@H](C)NC(=O)[C@@H](N)CCSC)C(=O)NCCCCC(NC(=O)C(CCCCNC(=O)CCCCCNC(=O)[C@H](CCCNC(=N)N)NC(=O)[C@H](CCCNC(=N)N)NC(=O)[C@H](CCCNC(=N)N)NC(=O)[C@H](CCCNC(=N)N)NC(=O)[C@H](C)NC(=O)[C@H](Cc1ccccc1)NC(=O)[C@H](CCC(=O)O)NC(=O)[C@H](CCC(=O)O)NC(=O)[C@H](CC(=O)O)NC(=O)[C@H](CC(=O)O)NC(=O)[C@H](Cc1c[nH]cn1)NC(=O)[C@H](Cc1c[nH]c2ccccc12)NC(=O)[C@H](C)NC(=O)[C@@H](N)CCSC)NC(=O)CCCCCNC(=O)[C@H](CCCNC(=N)N)NC(=O)[C@H](CCCNC(=N)N)NC(=O)[C@H](CCCNC(=N)N)NC(=O)[C@H](CCCNC(=N)N)NC(=O)[C@H](C)NC(=O)[C@H](Cc1ccccc1)NC(=O)[C@H](CCC(=O)O)NC(=O)[C@H](CCC(=O)O)NC(=O)[C@H](CC(=O)O)NC(=O)[C@H](CC(=O)O)NC(=O)[C@H](Cc1c[nH]cn1)NC(=O)[C@H](Cc1c[nH]c2ccccc12)NC(=O)[C@H](C)NC(=O)[C@@H](N)CCSC)C(N)=O (stereo partly drawn)			C57BL/6 mouse female, pancreas	dose not given, 3 h	reference: total	mean tissue distribution	1.14%

A few entries again:
Structure (SMILES)	target or system	test	system	setting	scale	endpoint	result
O=C1NC(=O)c2c1c1cc(F)c[n+]3c1c1c2c2cc(O)ccc2[n]1[Ru-4]312([N]=C=S)[S+]3CC[S+]1CC[S+]2CC3 (stereo not drawn)	TEC (Homo sapiens, UniProt P42680)	enzyme activity		100 nM, human enzyme, with: 10 µM ATP	reference: untreated	remaining activity	66%
CC(C)[C@H]1NC(=O)C[C@H]2/C=C/CCSSC[C@@H](NC1=O)C(=O)N[C@H](Cc1cccc3ccccc13)C(=O)NCC(=O)O2	Cyclin-dependent kinase 6, with cyclin D3 (CDK6, Homo sapiens, UniProt Q00534)	enzyme activity, inhibitor		10 µM		inhibition	9%
